Published values from different studies.
Lines come from different studies, so protocols differ.
Matrix: plasma

SMILES | species | route | dose | setting | quantity | value
Cn1cc(-c2cc(N3CCCS3(=O)=O)ccc2N[C@H]2CC[C@H](C)CC2)c2cc[nH]c2c1=O | Sprague-Dawley rat | oral | 3 mg/kg |  | MRT(0-inf) | 3.49 h
N#Cc1cnc2cc(OCC3CCNCC3)c(F)cc2c1Nc1cc(F)c(OCc2cccc(Cl)n2)cc1Cl | male Sprague-Dawley rat | oral | 300 mg/kg |  | MRT | 11.8 h
Cc1cc(/C=C/C#N)cc(C)c1Oc1nc(NC2CCN(Cc3ccc(S(C)(=O)=O)cc3)CC2)nc2ncccc12 | Sprague-Dawley rat | oral | 20 mg/kg |  | MRT(0-inf) | 3.48 h
COC(=O)/C=C/C(=O)c1ccc(OC)cc1 | Sprague-Dawley rat | oral | 200 mg/kg |  | MRT | 13.1 h
CNC(=O)N[C@]1(C)CCC[C@@]2(C)C3CC[C@@]4(C)C[C@]3(CCC21)CC4=O (single isomer, unassigned) | male Sprague-Dawley rat | oral | 2 mg/kg |  | MRT(0-inf) | 1.68 h
Cc1cc(/C=C2\CN(C(C)C)C/C(=C\c3cc(C)c(O)c(C)c3)C2=O)cc(C)c1O | female Sprague-Dawley rat | intravenous | 20 mg/kg |  | MRT(0-t) | 2.95 h
CN1CCN(c2ccc(Nc3ncc(Cl)c(Nc4ccccc4P(C)(C)=O)n3)cc2Br)CC1 | male Sprague-Dawley rat | oral | 25 mg/kg |  | MRT(0-inf) | 22.8 h
CCCN(c1ccc(C(=O)NCCC(=O)O)cc1)S(=O)(=O)c1cc(C)c(-c2ccc(C(C)(C)C)cc2)c(C)c1 | rat | oral | 5 mg/kg |  | MRT | 3.05 h
CSCOC1C(=O)C2(C)C(OCSC)CC3OCC3(OC(C)=O)C2C(OC(=O)c2ccccc2)C2(O)CC(OC(=O)C(O)C(C=C(C)C)NC(=O)OC(C)(C)C)C(C)=C1C2(C)C (stereo not drawn) | male Sprague-Dawley rat | intravenous | 4 mg/kg |  | MRT(0-t) | 6 h
CNc1cc(C(=O)Nc2ccc(Cl)cc2)ccc1OC | male Sprague-Dawley rat | oral | 20 mg/kg | single dose | MRT(0-t) | 1.9 h
O=C(N[C@@H](CC1CCCCC1)C(=O)N[C@@H](C[C@H]1CCNC1=O)C(=O)C(=O)NC1CC1)OCc1cccc(Cl)c1 | female Sprague-Dawley rat | oral | 10 mg/kg |  | MRT | 14.2 h
CC(C)(C)C(=O)Nc1ccc2[nH]c(CN3CCC(N(CCCN4CCOCC4)CC4OC(n5cnc6c(N)ncnc65)C(O)C4O)CC3)nc2c1 (stereo not drawn) | male Sprague-Dawley rat | intraperitoneal | 20 mg/kg |  | MRT | 1.75 h
COc1cc(NC(C)=O)c2c(c1O)-c1c(OC)c(OC)cc3c1C(C2)N(C)CC3 (stereo not drawn) | male Wistar rat | oral | 200 mg/kg |  | MRT(0-t) | 3.7 h
Cn1cc(-c2cc(N3CCCCS3(=O)=O)ccc2N[C@H]2CC[C@H](C)CC2)c2cc[nH]c2c1=O (stereo in doubt) | Sprague-Dawley rat | oral | 3 mg/kg |  | MRT(0-inf) | 1.54 h
Nc1nc(Cl)nc2c1ncn2Cc1cc(OCC(F)F)cc(OC(F)F)c1 | Sprague-Dawley rat | intravenous | 2.5 mg/kg |  | MRT(0-t) | 7.81 h

Repeated from above:
SMILES | species | route | dose | setting | quantity | value
CSCOC1C(=O)C2(C)C(OCSC)CC3OCC3(OC(C)=O)C2C(OC(=O)c2ccccc2)C2(O)CC(OC(=O)C(O)C(C=C(C)C)NC(=O)OC(C)(C)C)C(C)=C1C2(C)C (stereo not drawn) | male Sprague-Dawley rat | intravenous | 4 mg/kg |  | MRT(0-t) | 6 h
